Results collected from several papers.
Every numbered part comes from another study and shows a few of its results, in no order. Changes are numbered by the printed parent chain.

Study 1
Target: CCND1, cyclin fold, Cln2 fusion (human)
Technique: yeast growth competition, sequencing
Sample: yeast
Notes: weak parent motif
Baseline: not given
Reading: higher = stronger binding
Parent: CDC6 docking peptide (human); TLKGRRLVFDNQL
Variant	normalised enrichment score
TLKGRRLVFFNQL [D10F]	0.00315
GLKGRRLVFDNQL [T1G]	-0.0715
TLKGRRLVFDMQL [N11M]	0.342
TLKGRRLWFDNQL [V8W]	0.413
TMKGRRLVFDNQL [L2M]	0.406
TLKGRRLVFDNQI [L13I]	0.66
TLKGRRLVFDNPL [Q12P]	0.409
TLKGRRLVFDNHL [Q12H]	0.344
TLKGRRLVFDNFL [Q12F]	0.143
TLKGRRLVLDNQL [F9L]	0.292
TLKGRRLVFDNAL [Q12A]	0.398
TLKHRRLVFDNQL [G4H]	0.237
TLKGRRKVFDNQL [L7K]	0.153

Study 2
Target: Interferon regulatory factor 7, full length, phosphomimetic (IRF7, Homo sapiens, UniProt Q92985, residues 1-503, S101K/S471D/S472D/S475D/S476D/S477D/S483D/S484D/S487D)
Chain of UniProt Q92985 (whole entry, unmodified, looked up): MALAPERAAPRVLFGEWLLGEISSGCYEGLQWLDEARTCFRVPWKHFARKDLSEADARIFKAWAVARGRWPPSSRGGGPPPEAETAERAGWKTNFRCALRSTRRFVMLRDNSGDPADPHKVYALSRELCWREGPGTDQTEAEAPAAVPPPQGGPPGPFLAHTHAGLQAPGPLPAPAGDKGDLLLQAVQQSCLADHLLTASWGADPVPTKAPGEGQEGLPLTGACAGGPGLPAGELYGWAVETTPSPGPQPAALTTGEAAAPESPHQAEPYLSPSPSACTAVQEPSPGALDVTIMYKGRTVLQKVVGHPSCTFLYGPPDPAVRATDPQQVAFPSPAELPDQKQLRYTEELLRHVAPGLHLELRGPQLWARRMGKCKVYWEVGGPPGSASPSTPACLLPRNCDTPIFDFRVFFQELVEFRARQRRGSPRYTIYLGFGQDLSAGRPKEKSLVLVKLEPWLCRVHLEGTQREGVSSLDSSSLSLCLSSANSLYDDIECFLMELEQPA
Technique: protein-binding microarray
Molecule type: double-stranded DNA, one strand shown
Sample: in vitro
Tested at: 250 nM
Notes: 60-bp whole probe
Added: salmon DNA 0.4 mg/ml
Baseline: random background probes
Reading: higher = stronger binding
All sequences stand within: GCCTAGCAC … GTCTTGATTCGCTTGACGCTGCTG
Sequence	log fluorescence [z-score]
GACGAACAGAGTCTCGAGACGTGCTAG	0.45
TTAGGTTTCGGGTCTCGGTTAGTGCTA	10.7
TTTTGCTTTCTTTTATGCTCGTGCTAG	1.13
TTAGGGCTCCTTATCCTTTAGTGCTAG	0.229
GACGGTATCGACTTTCGAGACGTGCTA	1.51
AACTTTTTTTTTTCCCTGAAGTGCTAG	0.733
TGGCCTGTGCTATTTATAAGGGTGCTA	-0.469
GAGGGTCTCGGACTGGGGACGTGCTAG	-0.417
TTAGGTTTCGTTTTCGGTTAGTGCTAG	14.2
TTCCAATTCTCTTTTCACTTGTGCTAG	1.95
TTAGGTTCCCGTTTCCTTTAGTGCTAG	4.88
TATGTTCCTTATTTAAGACCGTGCTAG	2.49
GATGATATCGGGACTGGAGACGTGCTA	-0.428
TTAAGTATCGGTATCGGTTAGTGCTAG	2.92
TTAGATATCAGACTGGATAAGTGCTAG	-0.14
TTAGGTATCCTACTGCCTTAGTGCTAG	-0.149
TTAGGTTTCATTTTCCTTTAGTGCTAG	7.59
TTAGATATCAGACTGGAGTAGTGCTAG	-0.173
TTAGATTTCAGACTGGACTAGTGCTAG	-0.172

Study 3
Target: Centromere-binding protein 1, full length, N-terminal tag (CBF1, Saccharomyces cerevisiae, UniProt P17106, residues 1-351)
Chain of UniProt P17106 (whole entry, looked up): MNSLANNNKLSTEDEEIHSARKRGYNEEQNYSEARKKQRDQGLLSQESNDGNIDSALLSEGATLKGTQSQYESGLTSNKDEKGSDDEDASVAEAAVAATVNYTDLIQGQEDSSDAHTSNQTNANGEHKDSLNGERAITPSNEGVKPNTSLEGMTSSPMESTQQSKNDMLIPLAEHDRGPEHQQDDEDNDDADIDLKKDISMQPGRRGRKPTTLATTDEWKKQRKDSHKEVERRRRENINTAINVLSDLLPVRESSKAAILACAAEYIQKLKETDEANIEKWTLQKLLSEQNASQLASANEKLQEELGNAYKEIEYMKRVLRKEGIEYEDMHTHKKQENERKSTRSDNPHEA
Technique: protein-binding microarray
Molecule type: double-stranded DNA, one strand shown
Sample: in vitro
Tested at: 0.8 µM
Notes: whole 60-bp probe, no competitor
Reading: higher = stronger binding
Sequence	fluorescence intensity [a.u.]
GAAGAGGTGAAATTTCAGCTGACAGCGAGTTTCTAGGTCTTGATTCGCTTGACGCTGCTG	525
GAATCTAATAAATTTCACGTGATGCGGTAGTTTTAGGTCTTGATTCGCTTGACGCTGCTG	10300
CTAAGGATTCCCCGTGACGAAAACAGCCTTCAGTTCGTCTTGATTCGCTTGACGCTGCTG	1390
CTATTTAAATTACACGACATCACTCTTATTGAATTCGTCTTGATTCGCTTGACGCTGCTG	564
CTAGCACTGTTCAATTACATGACGTATCTTACGTTCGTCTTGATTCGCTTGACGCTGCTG	495
GAATTTAGCAACCCACACCATATACCTTTGGTGTAGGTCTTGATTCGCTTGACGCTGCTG	506
GAATTTCCATTGAATCTGATGACAGTTGAGTTTTAGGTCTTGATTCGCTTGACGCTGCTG	499
CTAGATTTTTTCGAACCCGTCAGGTGCAGGCTTTTCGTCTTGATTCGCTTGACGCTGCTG	1430
GAATGACAGATGTCTGGTCTGGTGGTATCGTATTAGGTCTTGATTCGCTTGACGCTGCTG	550
CCTAACTACTATAAGAACGTGAAATAGCTTCGTACAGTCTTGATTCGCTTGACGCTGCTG	547
CTACATCACTATGCACTGATGACGTCATTGTCATTCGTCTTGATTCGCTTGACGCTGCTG	578
CTACCACGATAAAAGCACGCGACCGAAAAGGCGTTCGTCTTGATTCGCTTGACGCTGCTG	1310
CTATTTTTTCCATCACACGTACTATGGCACCAATTCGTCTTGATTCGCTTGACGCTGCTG	639
GAATAATATCCGCAGAACATGATGCTAAAAGCCTAGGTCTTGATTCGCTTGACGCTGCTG	563
CTACCAACATATAAGCGGGTGATGTCTCATTTCTTCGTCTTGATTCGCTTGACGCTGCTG	527
CCTAACTACTATAGCTACGTGCGATAGCTTCGTACAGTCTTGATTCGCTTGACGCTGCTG	550
GAAGGTATTTTATGTCACGTACGGTTTTCAAAATAGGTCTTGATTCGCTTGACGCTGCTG	1260
GAAACAATATTTATACATGTGCGTTAAATACTTTAGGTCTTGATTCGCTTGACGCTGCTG	925
GAATGAAAGTTCGGTTACATGATGTGCGGCAAATAGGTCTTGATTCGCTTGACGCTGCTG	574

Study 4
Target: RNA binding protein fox-1 homolog 2, RRM domain, GST-SBP tag (RBFOX2, Homo sapiens, UniProt O43251-10, residues 100-194)
Technique: RNA Bind-n-Seq
Molecule type: RNA
Sample: in vitro
Tested at: 365 nM
Notes: natural RNA segment, single round, ends assumed
Baseline: no-protein control
Reading: higher = stronger binding
Construct (chain): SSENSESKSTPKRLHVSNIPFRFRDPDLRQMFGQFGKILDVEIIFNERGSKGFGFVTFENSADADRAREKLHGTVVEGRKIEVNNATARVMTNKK
Sequence	RBNS enrichment (R)
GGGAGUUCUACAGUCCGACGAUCAUUGCUCAGGCUGGCUUCGGACUCAGAGAUCUAUCUGCUUGCCUCCAACAUUUGAGAGCAGAGAGUUUGCACCACCACUUCCCGGUUCAAGGUUCUUUUAACUGCUAACUUGGAAUUCUCGGGUGCCAA	0.37
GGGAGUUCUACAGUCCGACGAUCGAGAGAAGGUGUGUCUGUGGUUCAGGAACAAGCUGUACAUUUUUCACCCUGACUAUGGGACGGAAAUCAGUGCUGCAUCUUCAUGGGCUGCUCUGCUCGGAGAUGGGGCCUGGAAUUCUCGGGUGCCAA	0.332
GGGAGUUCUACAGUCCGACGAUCUCUGUAUUAGAAGAAAAUAAGGGUAAAAUCAGGCUGAACUGCAUGUAUAUGGCUCCACUGUGGCUUGUGACACUUUUAAAAUCAUCCGUAUGUCAGUGUAUCUGGAUACAUGGAAUUCUCGGGUGCCAA	26.7
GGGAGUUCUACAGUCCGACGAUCACCUCAGGGCCACUGCAUUGUUUUGCCAAAAUCUUACUCCAGAUUAAGUACAGAACUUGGUUUCUAACCGUAUUUAGUUUUAUAUGUGUAUUCAGACAGUUAGAGUUUUGUGGAAUUCUCGGGUGCCAA	0.374
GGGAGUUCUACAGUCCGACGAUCUCUGAUAGUUGGGAUAAAGGGCUCAGCUCAGUUUACCUGUUACAAUUCAUAGUAUAUUGUUGUUUGUGACAUGAACUCCAAGAUACACAAAGGAGCCCAGGGAACUAUGUUGGAAUUCUCGGGUGCCAA	1.29
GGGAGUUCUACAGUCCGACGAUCGUACUUUAUUACCUGGAAACAUUCUUAAUAGAGAUUCAUUAGAAAACCCAAAUCUAAUGUUCAUGUGUUCAAGGAACCUUCUUCCAUUAUGUAACAGAACAGUCUAGAGAUGGAAUUCUCGGGUGCCAA	0.346
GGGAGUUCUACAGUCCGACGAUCAUGGCGUUCUUCUGAAAGAGCCACGUUUGGGUUUUAUUUCUUUGUCACAUGAUUUCUUUUCUGGAUGGGUGCAAAGUAUCACAGGAAGUGUUUUCUCUCUGUCGCCUUGUUGGAAUUCUCGGGUGCCAA	0.429
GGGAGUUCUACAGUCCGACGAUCUAUAGCAUUUAUGGUAAUCAUAUUAGACUUCUGUUUUCAAUCUCGUAUAGAAGUCUUCAUGAAAUGCUAUGUCAUUUCAUGUCCUGUGUCAGUUUAUGUUUUGGUCCACUUGGAAUUCUCGGGUGCCAA	0.263

Some of these lines once more (study 2):
Sequence	log fluorescence [z-score]
GAGGGTCTCGGACTGGGGACGTGCTAG	-0.417
TTAGGTTTCGTTTTCGGTTAGTGCTAG	14.2
TTCCAATTCTCTTTTCACTTGTGCTAG	1.95
TTAGGTTCCCGTTTCCTTTAGTGCTAG	4.88
TATGTTCCTTATTTAAGACCGTGCTAG	2.49
GATGATATCGGGACTGGAGACGTGCTA	-0.428
TTAAGTATCGGTATCGGTTAGTGCTAG	2.92
TTAGATATCAGACTGGATAAGTGCTAG	-0.14
